Measurements gathered from unrelated publications.
Each line is one published result; not all experiments were run side by side. “And” joins repeats or separate records; there may be more than shown.
Target: Wee1-like protein kinase (WEE1, Homo sapiens, UniProt P30291)

SMILES | assay | test system | conditions | how to read | measurement | result
C=CC(=O)Nc1cc(-c2nn(C3CCN(CCNC(=O)[C@H](C)CCC45CC6CC(CC(C6)C4)C5)CC3)c3ncnc(N)c23)ccc1Oc1ccccc1 | inhibitor, KiNativ profiling | biochemical | 2 µM |  | inhibition | -12.9%
CS(=O)(=O)Nc1cccc(-c2csc3cnc(Nc4ccc(N5CCN(CCCCCOc6cccc7c6C(=O)N(C6CCC(=O)NC6=O)C7=O)CC5)cc4)nc23)c1 (stereo not shown) | probe labelling, inhibitor, KiNativ chemoproteomics | MOLT-4 | 1 µM |  | inhibition | 84.9%
C=CC(=O)N1Cc2nc(-c3cc(-c4cc(Cl)cnc4Cl)c(F)cc3F)n(-c3ccncn3)c2C1 | cell-free assay, inhibitor |  | 1 µM |  | inhibition | -8%
N[C@H]1CC[C@H](Nc2nccc(-c3cccnc3Oc3ccc(NC(=O)NC4CC4)c4ccccc34)n2)CC1 | kinobead competition pulldown | HEK293/HCT116 lysate mixture | 10 µM, 1 h, 4 °C | lower = stronger competition | log2 LFQ intensity | 27.5 and 27.6 and 27.4
CCN1CCN(Cc2ccc(C(=O)Nc3ccc(C)c(NCc4cnc5[nH]ccc5c4OC)c3)cc2C(F)(F)F)CC1 | binding, competition with immobilised ligand |  | 1 µM |  | remaining binding | 99%
Cc1ccc(C(=O)Nc2ccc(CN3CCN(C)CC3)c(C(F)(F)F)c2)cc1C#Cc1cnc2cccnn12 | target engagement, NanoBRET | human cells |  |  | Hill slope | -1.85
O=C(Cc1ccc(OCc2ccccc2)cc1)NC1(C(=O)O)CCN(C(=O)c2ccc(-c3cccc(Cl)c3)cc2)CC1 | enzyme activity, inhibitor |  | 10 µM |  | activity vs control | 102%
COCC12C(=O)NC3C4(C(OC)CC1O)C1CC5(O)C(OC)C(O)C(OC(C)=O)(C1C5OC(=O)c1ccccc1)C3(O)C(OC)C24 (stereo not shown) | kinase activity, inhibitor, ProQinase kinase profiling |  | 25 µM | reference: control | remaining activity | 102% and 95%
CNC1C[S+]2CC[S+]3CC[S+](C1)[Ru-4]321([N]=C=S)[n]2c3ccc(OC)cc3c3c4c(c5cc(F)c[n+]1c5c32)C(=O)NC4=O (stereo not shown) | KinomeScan |  | 0.1 µM | reference: untreated | remaining binding | 100%
Nc1ncc(-c2cc(-c3cnn(CC(F)(F)F)c3)ncc2F)nc1C(=O)NC1CNCC(F)C1 (stereo not shown) | enzyme activity |  | 1 µM | reference: DMSO control | remaining activity | 101%
Cc1ccc(-c2c(/C=C(\C#N)C(=O)NC(C)C)n(CCCO)c3ncnc(N)c23)cc1 | cell-free assay, competition with immobilised ligand |  | 1 µM |  | remaining binding | 95%
COc1cc(Nc2nc(C)cc(-c3cnn4nc(OC)ccc34)n2)cc(C(F)(F)F)c1 | binding, competition with immobilised ligand |  | 1 µM |  | remaining binding | 95%
Nc1ncc2c(n1)-c1c([nH]c3ccc(C4=CCOCC4)cc13)CCC2 | binding, competition with immobilised ligand |  | 1 µM |  | remaining binding | 83%
CN1CC[C@@H](COc2cnc(C#N)cc2-c2ccn3nc(NC(=O)C4CC4)cc3c2)C1 | enzyme activity, inhibitor |  | 1 µM |  | inhibition | 2%
CC(C)=CC1OC(C)(C)C2C=C3C(=O)C(Cl)=CC(O)C3C3C(O)C4OC4C(=O)C132 (stereo not shown) | cell-free assay, competition with immobilised ligand |  | 10 µM |  | remaining binding | 97%
NC(=O)[C@@H](O)C[C@H]1CCc2sc3ncnc(O[C@H]4CC[C@H](N5CCOCC5)CC4)c3c21 | enzyme activity, inhibitor |  | 10 µM |  | inhibition | 4%

For quick reference, copied from above:
SMILES | assay | test system | conditions | how to read | measurement | result
C=CC(=O)N1Cc2nc(-c3cc(-c4cc(Cl)cnc4Cl)c(F)cc3F)n(-c3ccncn3)c2C1 | cell-free assay, inhibitor |  | 1 µM |  | inhibition | -8%
CN1CC[C@@H](COc2cnc(C#N)cc2-c2ccn3nc(NC(=O)C4CC4)cc3c2)C1 | enzyme activity, inhibitor |  | 1 µM |  | inhibition | 2%
